Experimental data from different studies.
Compare with care: the assays were run in different laboratories. Values joined by “and” are separate records of one study, mostly repeats; a detail may differ. ± gives the spread as reported.
STK4: Serine/threonine-protein kinase 4 (STK4, Homo sapiens, UniProt Q13043)
Chain of UniProt Q13043 (whole entry, looked up): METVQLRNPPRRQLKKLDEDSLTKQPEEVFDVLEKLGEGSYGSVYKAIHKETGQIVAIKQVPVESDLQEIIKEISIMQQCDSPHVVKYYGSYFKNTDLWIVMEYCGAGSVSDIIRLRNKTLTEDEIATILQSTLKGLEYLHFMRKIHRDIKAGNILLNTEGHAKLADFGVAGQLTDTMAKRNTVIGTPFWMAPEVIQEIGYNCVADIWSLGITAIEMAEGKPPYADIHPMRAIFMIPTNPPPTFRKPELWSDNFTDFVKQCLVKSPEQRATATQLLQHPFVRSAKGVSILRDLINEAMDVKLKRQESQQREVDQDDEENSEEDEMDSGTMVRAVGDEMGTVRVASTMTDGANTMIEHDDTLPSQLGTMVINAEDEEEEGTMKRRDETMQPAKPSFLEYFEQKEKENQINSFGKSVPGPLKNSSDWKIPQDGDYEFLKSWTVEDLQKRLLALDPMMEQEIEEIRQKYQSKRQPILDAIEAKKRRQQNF
CMKLR1: Chemerin-like receptor 1 (CMKLR1, Homo sapiens, UniProt Q99788)
Chain of UniProt P27361 (whole entry, looked up): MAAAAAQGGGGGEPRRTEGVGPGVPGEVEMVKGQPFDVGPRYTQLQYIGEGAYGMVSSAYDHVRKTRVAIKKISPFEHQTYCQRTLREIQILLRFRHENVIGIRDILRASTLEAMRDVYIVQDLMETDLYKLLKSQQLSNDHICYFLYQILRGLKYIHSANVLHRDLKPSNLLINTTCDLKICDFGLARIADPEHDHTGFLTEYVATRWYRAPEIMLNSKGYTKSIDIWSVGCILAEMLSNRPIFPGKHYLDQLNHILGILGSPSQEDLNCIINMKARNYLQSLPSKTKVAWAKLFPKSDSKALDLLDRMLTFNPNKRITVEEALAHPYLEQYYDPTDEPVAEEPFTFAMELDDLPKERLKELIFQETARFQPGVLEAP
Chain of UniProt A5GZW8 (whole entry, looked up): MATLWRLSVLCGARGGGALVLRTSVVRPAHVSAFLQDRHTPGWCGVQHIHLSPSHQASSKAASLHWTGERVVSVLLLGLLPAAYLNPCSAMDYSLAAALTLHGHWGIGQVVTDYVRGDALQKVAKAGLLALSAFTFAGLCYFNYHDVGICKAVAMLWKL
Chain of UniProt Q007T0 (whole entry, looked up): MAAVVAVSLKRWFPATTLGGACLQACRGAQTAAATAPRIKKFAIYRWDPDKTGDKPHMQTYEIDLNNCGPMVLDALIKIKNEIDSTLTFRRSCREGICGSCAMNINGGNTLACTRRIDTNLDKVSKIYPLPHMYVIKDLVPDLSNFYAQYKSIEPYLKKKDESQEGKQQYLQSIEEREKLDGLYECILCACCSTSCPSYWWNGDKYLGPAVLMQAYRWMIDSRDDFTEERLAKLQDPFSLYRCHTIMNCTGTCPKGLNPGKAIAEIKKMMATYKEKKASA
Chain of UniProt D0VWV4 (whole entry, looked up): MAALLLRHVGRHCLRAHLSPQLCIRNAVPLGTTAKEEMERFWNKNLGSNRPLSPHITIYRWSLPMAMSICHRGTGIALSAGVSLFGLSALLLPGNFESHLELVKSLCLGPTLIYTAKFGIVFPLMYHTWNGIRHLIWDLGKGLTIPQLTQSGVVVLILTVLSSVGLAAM
Chain of UniProt Q62351 (whole entry, looked up): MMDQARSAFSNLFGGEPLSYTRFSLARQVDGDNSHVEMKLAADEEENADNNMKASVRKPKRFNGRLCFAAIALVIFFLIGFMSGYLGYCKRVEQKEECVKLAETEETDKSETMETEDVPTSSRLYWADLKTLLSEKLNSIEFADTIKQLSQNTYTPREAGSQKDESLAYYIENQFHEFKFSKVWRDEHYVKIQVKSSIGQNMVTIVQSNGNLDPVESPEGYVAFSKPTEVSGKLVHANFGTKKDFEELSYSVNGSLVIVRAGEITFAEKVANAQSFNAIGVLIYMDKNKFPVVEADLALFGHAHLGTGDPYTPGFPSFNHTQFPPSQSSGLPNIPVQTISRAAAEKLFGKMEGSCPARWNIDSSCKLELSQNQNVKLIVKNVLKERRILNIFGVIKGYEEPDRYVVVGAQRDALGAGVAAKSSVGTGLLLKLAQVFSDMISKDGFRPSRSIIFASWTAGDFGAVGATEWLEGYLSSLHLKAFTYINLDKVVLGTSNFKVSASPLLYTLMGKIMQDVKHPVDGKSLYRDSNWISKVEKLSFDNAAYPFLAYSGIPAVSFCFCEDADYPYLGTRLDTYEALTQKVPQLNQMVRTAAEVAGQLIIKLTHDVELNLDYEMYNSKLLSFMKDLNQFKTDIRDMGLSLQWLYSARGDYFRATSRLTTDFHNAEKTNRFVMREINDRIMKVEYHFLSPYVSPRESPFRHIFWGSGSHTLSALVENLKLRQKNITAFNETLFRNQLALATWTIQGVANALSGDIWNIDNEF
Chain of UniProt Q99788 (whole entry, looked up): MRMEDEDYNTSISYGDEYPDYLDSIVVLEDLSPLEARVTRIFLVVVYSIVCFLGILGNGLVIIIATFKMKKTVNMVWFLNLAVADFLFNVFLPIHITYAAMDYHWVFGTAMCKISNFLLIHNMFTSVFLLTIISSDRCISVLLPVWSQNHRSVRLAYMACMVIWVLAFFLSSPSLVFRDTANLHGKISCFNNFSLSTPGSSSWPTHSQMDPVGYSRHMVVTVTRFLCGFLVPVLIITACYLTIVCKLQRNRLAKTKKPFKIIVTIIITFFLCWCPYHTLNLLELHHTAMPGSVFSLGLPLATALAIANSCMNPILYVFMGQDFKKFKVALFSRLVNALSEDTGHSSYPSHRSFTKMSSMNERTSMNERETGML
Chain of UniProt Q6XUX3 (whole entry, looked up): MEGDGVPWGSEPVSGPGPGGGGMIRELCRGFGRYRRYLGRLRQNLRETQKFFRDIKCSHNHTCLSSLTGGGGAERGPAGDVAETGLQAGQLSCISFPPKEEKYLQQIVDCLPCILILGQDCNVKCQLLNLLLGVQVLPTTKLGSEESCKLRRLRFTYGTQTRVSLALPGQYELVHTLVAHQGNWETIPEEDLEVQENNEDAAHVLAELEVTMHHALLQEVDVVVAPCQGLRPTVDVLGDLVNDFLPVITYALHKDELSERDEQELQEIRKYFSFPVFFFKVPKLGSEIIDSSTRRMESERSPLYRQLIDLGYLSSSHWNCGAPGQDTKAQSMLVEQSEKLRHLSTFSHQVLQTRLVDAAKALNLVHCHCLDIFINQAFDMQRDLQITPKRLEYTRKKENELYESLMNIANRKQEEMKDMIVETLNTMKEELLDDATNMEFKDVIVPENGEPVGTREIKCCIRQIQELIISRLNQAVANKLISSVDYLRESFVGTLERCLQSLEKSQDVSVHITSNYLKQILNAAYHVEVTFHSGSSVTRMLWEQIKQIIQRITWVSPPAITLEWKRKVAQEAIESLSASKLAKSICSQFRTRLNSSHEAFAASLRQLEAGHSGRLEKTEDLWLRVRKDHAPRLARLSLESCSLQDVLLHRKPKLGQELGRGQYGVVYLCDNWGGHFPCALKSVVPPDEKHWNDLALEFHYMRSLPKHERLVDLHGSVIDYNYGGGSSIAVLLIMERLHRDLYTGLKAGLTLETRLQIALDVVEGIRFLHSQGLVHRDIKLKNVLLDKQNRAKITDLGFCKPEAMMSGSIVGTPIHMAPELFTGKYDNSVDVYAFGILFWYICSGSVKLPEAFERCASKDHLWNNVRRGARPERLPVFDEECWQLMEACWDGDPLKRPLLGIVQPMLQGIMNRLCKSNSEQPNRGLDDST
Chain of UniProt Q7Z2W7 (whole entry, looked up): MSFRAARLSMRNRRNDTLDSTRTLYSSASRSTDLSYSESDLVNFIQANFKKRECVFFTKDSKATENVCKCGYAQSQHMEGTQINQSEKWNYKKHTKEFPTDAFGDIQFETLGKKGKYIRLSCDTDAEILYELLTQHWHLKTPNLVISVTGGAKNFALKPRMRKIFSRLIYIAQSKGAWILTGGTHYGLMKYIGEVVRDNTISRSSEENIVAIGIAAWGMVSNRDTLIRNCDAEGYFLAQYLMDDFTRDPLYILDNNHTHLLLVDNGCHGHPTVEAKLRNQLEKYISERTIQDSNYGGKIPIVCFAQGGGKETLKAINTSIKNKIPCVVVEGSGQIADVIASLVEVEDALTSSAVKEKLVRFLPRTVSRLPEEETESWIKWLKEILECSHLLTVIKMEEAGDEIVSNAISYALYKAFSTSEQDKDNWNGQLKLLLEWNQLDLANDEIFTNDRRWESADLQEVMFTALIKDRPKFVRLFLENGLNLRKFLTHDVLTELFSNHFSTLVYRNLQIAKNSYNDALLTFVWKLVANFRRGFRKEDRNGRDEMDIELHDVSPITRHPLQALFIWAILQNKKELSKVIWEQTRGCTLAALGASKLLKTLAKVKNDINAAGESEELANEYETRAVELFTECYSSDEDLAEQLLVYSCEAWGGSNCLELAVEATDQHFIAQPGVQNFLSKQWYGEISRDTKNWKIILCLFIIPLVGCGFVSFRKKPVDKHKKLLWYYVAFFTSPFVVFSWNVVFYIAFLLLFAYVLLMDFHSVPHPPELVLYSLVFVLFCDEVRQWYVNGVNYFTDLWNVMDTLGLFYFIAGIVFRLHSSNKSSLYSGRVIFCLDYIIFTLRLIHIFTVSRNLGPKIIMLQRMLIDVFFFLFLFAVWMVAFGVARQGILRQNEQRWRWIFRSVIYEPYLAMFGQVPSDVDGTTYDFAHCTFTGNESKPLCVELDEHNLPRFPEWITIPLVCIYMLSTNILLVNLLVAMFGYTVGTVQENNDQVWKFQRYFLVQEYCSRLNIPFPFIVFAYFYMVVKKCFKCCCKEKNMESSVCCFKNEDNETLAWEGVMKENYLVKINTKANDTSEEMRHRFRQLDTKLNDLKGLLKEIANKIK
Chain of UniProt Q9NS75 (whole entry, looked up): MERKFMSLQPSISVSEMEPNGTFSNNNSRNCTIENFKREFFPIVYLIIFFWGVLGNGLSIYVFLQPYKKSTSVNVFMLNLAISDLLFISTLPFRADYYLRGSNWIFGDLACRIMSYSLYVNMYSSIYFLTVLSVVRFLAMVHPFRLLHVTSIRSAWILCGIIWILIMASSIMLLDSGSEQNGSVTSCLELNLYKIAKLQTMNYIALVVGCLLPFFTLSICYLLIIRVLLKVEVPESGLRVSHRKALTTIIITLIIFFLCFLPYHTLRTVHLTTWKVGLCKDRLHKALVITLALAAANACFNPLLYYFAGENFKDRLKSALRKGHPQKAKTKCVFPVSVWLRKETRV

SMILES | target | assay | test system | conditions | scale | measurement | result
CC1(C)C(C=C(Cl)Cl)C1C(=O)OCc1cccc(Oc2ccccc2)c1 (stereo not drawn) | uncharacterized protein (Anopheles coluzzii, UniProt A0A6E8VQK1) | enzyme activity, inhibitor | Sf9 cell homogenate | 4.651 µM, 0.1667 h, added: α-naphthyl acetate substrate | relative to: no inhibitor | remaining activity | 94.2%
COc1ccc(N2C(=O)N(c3c(C)cccc3Cl)Cc3cnc(Nc4ccc(C5CCN(C)CC5)cc4OC)nc32)nc1 | STK4 | kinase activity, inhibitor | – | 0.5 µM, MST1 | – | inhibition | 10%
O=C(O)Cc1c[nH]cn1 | SLC6A6 (Homo sapiens, UniProt P31641, Y138A) | binding, microscale thermophoresis | – | 62.5 µM, room temperature, added: 50 nM labelled protein | higher = more binding | normalised MST signal | 0.288
O=C(Nc1cccnn1)N1CCC(=Cc2cccc(Oc3ccc(C(F)(F)F)cn3)c2)CC1 | TSSK2 (Homo sapiens, UniProt Q96PF2) | kinase activity, inhibitor | – | 50 µM, human, added: CHKtide | – | inhibition | 20%
CC[C@H](CO)Nc1nc(NCc2ccccc2)c2ncn(C(C)C)c2n1 | DYRK1A (Homo sapiens, UniProt Q13627) | KINOMEscan competition binding | – | 10 µM, primary screen | direction not given | binding score | 6.4
CC[C@@H](C)[C@@H](NC(=O)[C@@H](Cc1ccc(O)cc1)NC(=O)[C@H]1CCCN1C(=O)[C@@H](CCCNC(=N)N)NC(=O)[C@H](N)Cc1c[nH]cn1)C(=O)N[C@H](C)C(=O)N[C@H](Cc1c[nH]cn1)C(=O)N[C@H](CCCNC(=N)N)C(=O)N[C@H](CCCCNC(=O)c1cccc(S(=O)(=O)F)c1)C(=O)N[C@H](Cc1ccc(O)cc1)C(=O)N[C@H](CO)C(=O)N[C@H](Cc1ccccc1)C(N)=O | Transferrin receptor protein 1 (Tfrc, Mus musculus, UniProt Q62351) | flow cytometry | DC2.4 | 48 h, pH 7.4, unit not given | relative to: 0 h | surface expression | 0.51 and 0.413
O=C(Nc1cnccc1Cl)N1CCN(Cc2ccc3c(c2)OC(F)(F)O3)CC1 | CYSLTR2 (Homo sapiens, UniProt Q9NS75) | radioligand binding | – | 50 µM, added: [3H]LTD4 | – | inhibition of binding | -7%
O=C(c1ccc(Cl)cc1)N1CCN2C(=O)N(OC(=O)N3CCOc4ccccc43)C(=O)C2C1 (stereo not drawn) | Serine hydrolase RBBP9 (Homo sapiens, UniProt O75884) | enzyme activity, inhibitor, MS-based ABPP | SW-620 in situ | 10 µM, 2 h, 37 °C | relative to: compound over DMSO, lower = stronger inhibition | median ratio | 1.1
Cc1ccc2c(c1)C=CC21CCN(C2Cc3ccccc3CC2O)CC1 (racemic) | SIGMAR1 (Homo sapiens, UniProt Q99720) | – | rat liver (sigma2), human sigma1 | – | relative to: Ki sigma2 over Ki sigma1 | selectivity ratio | 180
O=C(CCl)c1ccoc1 | UCHL1 (Homo sapiens, UniProt P09936) | covalent, intact protein LC-MS | – | 12.5 µM | – | labelling | 8.48%
C=C(CN(C(=O)c1c(C(F)F)nn(C)c1F)C1CC1)c1ccc(Cl)cc1Cl | SDHD/SDHC/SDHB (Sus scrofa, UniProt A5GZW8+D0VWV4+Q007T0) | enzyme activity, inhibitor, DCIP reduction | pig | 0.2 µM, added: DCIP 10 µM | – | reaction velocity | 0.00257 µM/s and 0.00292 µM/s and 0.0027 µM/s
CN1CCN(c2cc(-c3ccncc3)c(-c3ccc4ccccc4c3)nn2)CC1 | CMKLR1 | agonist, FLIPR calcium | – | 12.5 µM | – | activation | 1%
C[n+]1cn([C@@H]2O[C@H](COP(=O)([O-])OP(=O)(O)OP(=O)(O)OC[C@H]3O[C@@H](n4cnc5c(=O)[nH]c(N)nc54)[C@H](O)[C@@H]3O)[C@@H](O)[C@H]2O)c2nc(N)[nH]c(=O)c21 | m7GpppX diphosphatase (DCS1, Saccharomyces cerevisiae, UniProt Q06151, H268N) | binding, ITC | – | – | – | stoichiometry first site | 1.01
C#CCCCCNC(=O)CI | NCEH1 (Homo sapiens, UniProt Q6PIU2) | mass spectrometry profiling | H460 cell lysate | 100 µM over 10 µM, UniProt Q6PIU2 | relative to: high over low concentration | reactivity ratio | 1.76
O=C(O)C(F)(F)C(F)(F)C(F)(F)C(F)(F)C(F)(F)C(F)(F)C(F)(F)F | Albumin (ALB, Homo sapiens, UniProt P02768) | ITC | – | 25 °C, first binding site, added: HSA 20 µM | – | association constant | 9.3e+06 M⁻¹
Nc1ncc(-c2nc(N3CCOCC3)nc(N3CCOCC3)n2)c(C(F)F)n1 | DSTYK (Homo sapiens, UniProt Q6XUX3) | KINOMEscan | – | 10 µM | – | remaining binding | 79%
COC(=O)[C@@]1(O)C[C@H]2O[C@]1(C)n1c3ccccc3c3c4c(c5c6ccccc6n2c5c31)C(=O)NC4 | MAPK3 (Homo sapiens, UniProt P27361) | ADP-Glo | – | 3.98 µM, added: MBP substrate | – | kinase activity | 8.39% and 1.78% and 2.69%
COc1cc(F)cc(NS(=O)(=O)c2ccc(S(=O)(=O)F)c3c2CCCC3)c1 | RALB (Homo sapiens, UniProt P11234, Y82F) | inhibitor, BODIPY-FL-GDP exchange | – | concentration not given, 24 h, 4 °C, added: Rgl2 | – | nucleotide exchange | no inhibition
COc1ccc2c(c1)/C(=C/c1cnc[nH]1)C(=O)N2 | TRPM8 (Homo sapiens, UniProt Q7Z2W7) | antagonist | HEK293 | 5 µM | relative to: control | remaining activity | 98.7 ± 7.49%
[2H]c1c([2H])c([C@]2([2H])CCCN2C(=O)C(C)(C)Oc2ccc3cn[nH]c3c2)c([2H])c([2H])c1C([2H])([2H])[2H] | STK4 | KINOMEscan | – | 1 µM | relative to: DMSO control | remaining binding | 78%
COc1cc(N)c(Cl)cc1C(=O)NC1CN2CCC1CC2 (stereo not drawn) | CMKLR1 | β-arrestin recruitment, TANGO luminescence | – | concentration not given | relative to: basal luminescence | log2 fold change | 0.617
CC(=O)NC[C@H]1[C@H](O)[C@H](O)[C@@H]2[C@H](O)C[C@@H](CO)N21 | human placental β-N-acetylglucosaminidase | – | – | 0.01288 µM, run 1, added: p-nitrophenyl GlcNAc | – | inhibition | 65%
CN(Cc1ccc(S(=O)(=O)N2CCOCC2)cc1)c1ccc2c3c(cccc13)C(N)=N2 | TYMS (Homo sapiens, UniProt P04818) | from literature Kd | – | – | – | binding efficiency index | 18
COc1cc(Nc2ncc(F)c(Nc3ccc4c(n3)NC(=O)C(C)(C)O4)n2)cc(OC)c1OC | BTK (Homo sapiens, UniProt Q06187) | KINOMEscan | – | 10 µM | – | inhibition | 5%
CC[N+]1(C)CCN(c2ccc(C(N)=O)cc2)CC1.[I-] | Nicotinic acetylcholine receptor alpha1/beta1/epsilon/delta (Mus musculus, UniProt P02716+P04756+P09690+P20782) | ion current, inhibitor, two-electrode voltage clamp | Xenopus oocytes | 30 µM, after co-application, unit not given, added: ACh 30 µM | relative to: ACh alone | ACh response | 0.452 ± 0.072
CCC1=C(C)CN(C(=O)NCCc2ccc(S(=O)(=O)NC(=O)N[C@H]3CC[C@H](C)CC3)cc2)C1=O | Ribosomal processing cysteine protease Prp (prp, Staphylococcus aureus, UniProt Q2FXS9, N63Q) | enzyme activity, inhibitor | – | 10 µM, prp 21.4 nM, added: FITC peptide substrate 0.5 µM | – | inhibition | 9.2 ± 9.1%
C[C@H]1CN(c2n[nH]c3nc(N[C@H]4CC[C@H](NS(=O)(=O)CCC(F)(F)F)CC4)ncc23)CCO1 | PRKACA (Homo sapiens, UniProt P17612) | inhibitor, Kinobeads competition profiling | – | 0.8 µM | relative to: vehicle | relative abundance | 1.07

Some of these lines once more:
SMILES | target | assay | test system | conditions | scale | measurement | result
O=C(O)C(F)(F)C(F)(F)C(F)(F)C(F)(F)C(F)(F)C(F)(F)C(F)(F)F | Albumin (ALB, Homo sapiens, UniProt P02768) | ITC | – | 25 °C, first binding site, added: HSA 20 µM | – | association constant | 9.3e+06 M⁻¹
[2H]c1c([2H])c([C@]2([2H])CCCN2C(=O)C(C)(C)Oc2ccc3cn[nH]c3c2)c([2H])c([2H])c1C([2H])([2H])[2H] | STK4 | KINOMEscan | – | 1 µM | relative to: DMSO control | remaining binding | 78%
CN1CCN(c2cc(-c3ccncc3)c(-c3ccc4ccccc4c3)nn2)CC1 | CMKLR1 | agonist, FLIPR calcium | – | 12.5 µM | – | activation | 1%
